Results from different studies.
Each numbered part is a random draw from the data of one study; scales do not carry over between parts. Substitutions count along the parent as printed.

Set 1 — target: UBE2G2 UBC core domain (UniProt P60604); technique: yeast two-hybrid; matrix: yeast; setting: mostly zero background; relative to: not given; direction: higher = stronger interaction
B1: RLIM RING domain (UniProt Q9NVW2); chain SFGENDALKTCSVCITEYTEGNKLRKLPCSHEYHVHCIDRWLSENSTCPICRRAVLASGNRE
B2: TRIM22 RING domain (UniProt Q8IYM9); chain VKVDIEKEVTCPICLELLTEPLSLDCGHSFCQACITAKIKESVIISRGESSCPVCQTRFQPGNLRP
B3: DEF8 RING domain (UniProt Q6ZN54); chain AGRLGCSLTEIHTLFAKHIKLDCERCQAKGFVCELCREGDVLFPFDSHTSVCADCSAVFHRDCYYDNSTTCPKCARLSLRK
B4: RNF187 RING domain (UniProt Q5TA31); chain ALPAGPAEAACALCQRAPREPVRADCGHRFCRACVVRFWAEEDGPFPCPECADDCWQRAVEP
B5: RNF166 RING domain (UniProt Q96A37); chain GDSGLEAQYTCPICLEVYHRPVAIGSCGHTFCGECLQPCLQVPSPLCPLCRLPFDPKKVDK
B6: RNF31 RING domain (UniProt Q96EP0); chain AFLRRLLAQECAVCGWALPHNRMQALTSCECTICPDCFRQHFTIALKEKHITDMVCPACGRPDLTDDTQLL
B7: ANAPC11 RING domain (UniProt Q9NYG5); chain GICRMAFNGCCPDCKVPGDDCPLVWGQCSHCFHMHCILKWLHAQQVQQHCPMCRQEWKFKE
Residues (chain): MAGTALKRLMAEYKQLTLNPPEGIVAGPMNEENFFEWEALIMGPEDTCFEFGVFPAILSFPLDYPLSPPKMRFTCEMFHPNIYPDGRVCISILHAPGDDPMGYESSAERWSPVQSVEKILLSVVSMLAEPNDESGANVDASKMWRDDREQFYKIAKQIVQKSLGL
| Molecule | lacZ reporter activity |
| --- | --- |
| B1 (RLIM RING domain) | 0 |
| MNDVLENELQCIICSEYFIEAVTLNCAHSFCSYCINEWMKRKIECPICRKDIKSKTYSL (RNF8 RING domain (UniProt O76064)) | 0 |
| B2 (TRIM22 RING domain) | 0 |
| B3 (DEF8 RING domain) | 0 |
| B4 (RNF187 RING domain) | 0 |
| B5 (RNF166 RING domain) | 15700 |
| KPDKMEETLTCIICQDLLHDCVSLQPCMHTFCAACYSGWMERSSLCPTCRCPVERICKNH (CHFR RING domain (UniProt Q96EP1)) | 9470 |
| B6 (RNF31 RING domain) | 0 |
| RYRQMEERITCPICIDSHIRLVFQCGHGACAPCGSALSACPICRQPIRDRIQIF (MIB2 RING domain (UniProt Q96AX9)) | 0 |
| B7 (ANAPC11 RING domain) | 0 |

Set 2 — technique: RNA Bind-n-Seq; molecule type: RNA; matrix: in vitro; tested at: 1 µM; setting: whole 134-nt RNA, ends assumed; added: 150 mM KCl; relative to: input library; direction: higher = stronger binding
Target: Ras GTPase-activating protein-binding protein 1, C-terminal RGG region (G3BP1, Homo sapiens, UniProt Q13283)
Chain of UniProt Q13283 (whole entry, looked up): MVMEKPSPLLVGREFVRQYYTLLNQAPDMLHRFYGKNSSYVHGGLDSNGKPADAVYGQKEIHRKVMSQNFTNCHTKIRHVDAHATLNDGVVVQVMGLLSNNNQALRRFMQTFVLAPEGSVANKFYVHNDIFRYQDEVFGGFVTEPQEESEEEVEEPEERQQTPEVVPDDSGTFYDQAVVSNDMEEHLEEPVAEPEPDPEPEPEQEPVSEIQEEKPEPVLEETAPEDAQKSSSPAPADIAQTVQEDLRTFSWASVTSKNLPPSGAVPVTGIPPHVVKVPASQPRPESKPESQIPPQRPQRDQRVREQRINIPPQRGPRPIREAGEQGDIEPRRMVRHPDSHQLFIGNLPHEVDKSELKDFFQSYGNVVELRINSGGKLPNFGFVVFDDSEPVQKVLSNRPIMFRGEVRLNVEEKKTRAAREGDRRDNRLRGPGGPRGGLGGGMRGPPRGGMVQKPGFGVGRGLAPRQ
All sequences stand within: GGGAGUUCUACAGUCCGACGAUC … UGGAAUUCUCGGGUGUCAAGG
| Strand | log2 enrichment |
| --- | --- |
| UUGUGGAAAGGAGGAGAACCCCUGCUGAAAUUCGAGAGGAGUUUGAGCGGCUGCAGAGAGAGAGAGAAGAGAGGAGAUUGCAGCAGCGAA | -1.86 |
| GCAGGCAGUAAAAACAAAUGGAAAUGCUUCGGAUAGUGGCAGGGGUGGGGGUUGCUAAGGAAAGGGUGGGAUGGGAGUGGGUAAAGAGUU | 2.65 |
| CUGUGCUACACAUCGUAUGUACCGAAUCGGGUUUUUUUGGGUUUUUUUGGGAAAAAAAGGGAAAGUAUUAUGUUACGCCGUUCGGAUCUG | -1.79 |
| ACCUUGCAGGUGGGCAUCUUUGGGAAGUGGGGCAAGGGGGGGAUAGGGAGGGGGGUAACACUUUGGGAACAGGUGGUCCCAGGUCGUUUC | -0.948 |
| CCUCAAGUCCUGUGCUACACAUCGUAUGUACCGAAUCGGAGGGGAGGGAGGGGAAAGUAUUAUGUUACGCCGUUCGGAUCUGCACUUCCA | 1.31 |
| CUGUGCUACACAUCGUAUGUACCGAAUCGGCCCCCCCGGGCCCCCCCGGGGCCCCCCCGGGGAAAGUAUUAUGUUACGCCGUUCGGAUCU | -2.42 |
| AGUCCUGUGCUACACAUCGUAUGUACCGAAUCGGGAAAAGGGAAAAGGGGAAAAGGGGAAAGUAUUAUGUUACGCCGUUCGGAUCUGCAC | 0.587 |
| UGGCCCUGGUGGCAUGCGGGGAGGAAGAGGUGGCCUCAUGGAUCGUGCUGGUCCCGGUGGAAUGUUCAGAGGUGGCCGUGGUGGAGACAG | 0.96 |
| CCUGUGCUACACAUCGUAUGUACCGAAUCGGUUUUUUUGGGGUUUUUUUGGUUUUUUUGGAAAGUAUUAUGUUACGCCGUUCGGAUCUGC | -1.17 |
| UGCCGUGCCGGGUGGACGGUCUGCUCGCCUGUCUGCGUGACGAAACUGAGGCACAAAGACGCGCUAUGCCAGCGGCGGGUAUAGCAAGGG | -1.3 |
| AAGUCCUGUGCUACACAUCGUAUGUACCGAAUCGGGUUUUGGGUUUUGGUUUUGGGGAAAGUAUUAUGUUACGCCGUUCGGAUCUGCACU | -0.671 |
| UCCUGUGCUACACAUCGUAUGUACCGAAUCGGGGAAAGGGGUUUUUUUGGGGUUUGGGGAAAGUAUUAUGUUACGCCGUUCGGAUCUGCA | 1.7 |
| CAAGUCCUGUGCUACACAUCGUAUGUACCGAAUCGGAGGAAAAAGGAAAAAAAGGAAAGUAUUAUGUUACGCCGUUCGGAUCUGCACUUC | -1.7 |
| UGUGCUACACAUCGUAUGUACCGAAUCGGGGCCCCCCCGGGGCCCCCCCGGGGCCCCCCCGGGAAAGUAUUAUGUUACGCCGUUCGGAUC | -2.54 |

Set 3 — target: CCNE1, cyclin fold, Cln2 fusion (human); technique: yeast growth competition, sequencing; matrix: yeast; setting: strong parent motif; relative to: not given; direction: higher = stronger binding
Starting sequence: CDC25A docking peptide (human); PPHRRRLLFACSP
| Variant | normalised enrichment score |
| --- | --- |
| C11S | 1.14 |
| P1A | 1.08 |
| R5V | 1.38 |
| P13W | 0.327 |
| L8R | 0.922 |
| R4S | 0.3 |
| R6C | 0.87 |
| P2E | 1.64 |
| P2Q | 1.53 |
| H3P | 0.63 |
| R6N | 0.975 |
| R5A | 0.951 |
| P13F | 1.43 |
| R4C | 3.41 |
| R5C | 0.684 |
| P13V | 0.706 |
| P2F | 1.22 |
| P13K | 0.607 |
| R5E | 0.17 |
| R5W | 1.32 |
| C11G | 1.31 |
| R6H | 0.671 |
| R5T | 0.104 |
| A10Q | 1.95 |
| P2C | 1.98 |

Set 4 — technique: RNA Bind-n-Seq; molecule type: RNA; matrix: in vitro; tested at: not given; relative to: input RNA pool; direction: higher = stronger binding
Target: RING finger protein unkempt homolog, zinc fingers 1-6, GST-SBP tag (UNK, Homo sapiens, UniProt Q9C0B0, residues 30-357)
Chain of UniProt Q9C0B0 (30-357, looked up): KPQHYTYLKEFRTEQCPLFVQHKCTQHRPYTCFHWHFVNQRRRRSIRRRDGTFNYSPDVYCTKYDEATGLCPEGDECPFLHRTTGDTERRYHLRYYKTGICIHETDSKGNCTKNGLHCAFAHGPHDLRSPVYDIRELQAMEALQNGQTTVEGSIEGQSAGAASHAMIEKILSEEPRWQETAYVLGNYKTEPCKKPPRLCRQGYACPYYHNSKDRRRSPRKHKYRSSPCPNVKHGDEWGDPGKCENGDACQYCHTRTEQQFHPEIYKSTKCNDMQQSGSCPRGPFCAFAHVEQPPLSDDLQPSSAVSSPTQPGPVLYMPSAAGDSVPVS
Setting: RNA with constant flanks, human and mouse sites, ends assumed
All sequences stand within: GGGAGUUCUACAGUCCGACGAUC … CAACAGAGGAUUGAGCAUCA
| Strand | bound/input enrichment |
| --- | --- |
| GUGGGAGUUCUCCUUCAGGAUCAUGAUGUUCGUCAGAGUGAAUUUCAGCAACUUCCCUACCAUCGAAUUUUUAUCAUGCUUCUCUUGGAACUCAAUGCACCUGAGCAUGUGUUGGAAACC | 0.183 ratio |
| GCUUGGCAAGGUCUCGCUUUGCUGGUCCACAGAACAGUGGUUUUGCCACCAACUCAGUUUUCUUUGGACGACAGAGGAAGUAAAACUCCAGACAAUUCUGUCCCGAACUCCUCAAGUCUG | 0.102 ratio |
| AUGGGCUUUCAUGUAAUCUAUAAGACACCCUGUGGUCUCUGCCUUCGGACGAUGCAGGAGAUAGAGCGCUACCUUUUUGAGACUGGCUGUGACUUUCUGUUCCUGGAGAUGUUCUGUUUG | 0.195 ratio |
| AUGUGACAUGUUUGUACAUUUUAUCUAUAUCUUCAUGGCAAAAUAUUUUGUUUAAAACAUGAUUAUCUUAAUUCCUGUGAAGUGGCACUCUACACUCUAAUUAAACUUUUAUCUGAUGUA | 0.676 ratio |
| CAUGGGUUUUAAGUGCUUGUGGCUCACUGAAGCUUAAGUGAGGAUUUCCUUGCAAUGAGUAGAAUUUCCCUUCUCUCCCUUGUCACAGGUUUAAAAACCUCACAGCUUGUAUAAUGUAAC | 0.16 ratio |
| AGGCUCCGGACAUGGACAUCUUCCAGCAACAGAUCUCGAGAAGACAGCUGGCUAAAAUCCUUAUUUGUCCGGAAAGUUGAUCCAAGAAAAGAUGCCCACUCCAAUCUCCUAGCCAAAAAG | 0.0555 ratio |
| AAAGACAAGGAGCAGGUGGGGAUGAUCAAAGAGAAAUACGAGCACCGGAUGCUACUGAAGCACAUGCCAUCCGAGUUUCAUCUCUUCCUGGACCACAUUGCCAGCCUCGACUACUUCACC | 0.0639 ratio |
| CUCAUGUAUCUACUAGCAUAUCCACAAAAACCCAUGGUUAAGACAAAAACCAUUGAAUUGAUAGAAUUUGAGAAACUGCCAGCUGGACAGAAUGCAACAGUUGCUGUGAUGAGCUAUAGU | 0.77 ratio |
| ACAUAAAUGGAUCUAAAGACAGCAGUAUUUAACGCAGCUCGGGAUGGCAAACUCCGGCUUCUCACCAAAUUGUUGGCAAGCAAAUCCAAAGAGGAGGUUUCCUCCUUGAUCUCUGAAAAA | 0.113 ratio |
| GUUAUAGUCAUCCCACAGUCUUCUAUUUCCACCAAUGCAGUAGUGGUAGAUCUUGGGUUAAUCAGAGUUCAUAAUCAGUUCAGUCUGGUGUCUGAUGAAGACUACUUAAAUCCUCCAGUA | 0.222 ratio |
| CUUCAGCUGGUGUUGGUCUGGCUGGGAGAGGUGCUGGGUGUCAUUGGGGACUCCCCAGAGCUAGUUCAGCGGUCCUUCCUUGUGGCUAGUGUUCUGCCAGGUCCCGAUGGCAACGUUAAC | 0.161 ratio |

A few entries again (set 2):
| Strand | log2 enrichment |
| --- | --- |
| GCAGGCAGUAAAAACAAAUGGAAAUGCUUCGGAUAGUGGCAGGGGUGGGGGUUGCUAAGGAAAGGGUGGGAUGGGAGUGGGUAAAGAGUU | 2.65 |
| ACCUUGCAGGUGGGCAUCUUUGGGAAGUGGGGCAAGGGGGGGAUAGGGAGGGGGGUAACACUUUGGGAACAGGUGGUCCCAGGUCGUUUC | -0.948 |
| UCCUGUGCUACACAUCGUAUGUACCGAAUCGGGGAAAGGGGUUUUUUUGGGGUUUGGGGAAAGUAUUAUGUUACGCCGUUCGGAUCUGCA | 1.7 |
| UGCCGUGCCGGGUGGACGGUCUGCUCGCCUGUCUGCGUGACGAAACUGAGGCACAAAGACGCGCUAUGCCAGCGGCGGGUAUAGCAAGGG | -1.3 |
